Experimental data collected from several papers.
Lines come from different studies, so protocols differ. Numbers after ± are the reported error.

C=Cc1c(C)c2cc3nc(c(CC(=O)O)c4[nH]c(cc5nc(cc1[nH]2)C(C)=C5CC)c(C)c4C(=O)O)[C@@H](CCC(=O)NCCCC[C@H](NC(C)=O)C(=O)N[C@@H](Cc1ccccc1)C(=O)N[C@@H](Cc1ccccc1)C(=O)N[C@H](C(=O)N[C@@H](CC(C)C)C(=O)N[C@@H](CCCCN)C(=O)N[C@@H](CO)C(=O)NCC(=O)N[C@@H](CCC(N)=O)C(=O)N[C@@H](Cc1ccc(O)cc1)C(=O)N[C@@H](C)C(=O)N[C@@H](CO)C(=O)N[C@@H](Cc1ccc(O)cc1)C(=O)N[C@@H](Cc1c[nH]cn1)C(=O)N[C@@H](CS)C(=O)N[C@@H](Cc1c[nH]c2ccccc12)C(=O)N[C@@H](CS)C(=O)N[C@@H](Cc1c[nH]c2ccccc12)C(=O)N[C@@H](CCCNC(=N)N)C(=O)N[C@@H](CC(=O)O)C(=O)N1CCC[C@H]1C(=O)NCC(=O)N[C@@H](CCCNC(=N)N)C(=O)N[C@@H](CO)C(=O)NCC(=O)NCC(=O)N[C@@H](CO)C(=O)N[C@@H](CCCCN)C(N)=O)C(C)C)[C@@H]3C  cellular uptake (HFF; confocal microscopy; 50 µM, with: endocytosis inhibitors): inhibited
Clc1cc2oc3cc(Cl)c(Cl)c(Cl)c3c2cc1Cl  mass balance (Caco-2 monolayer; GC-HRMS; static Transwell; 0.2 ng/mL, 24 h, 1% DMSO, congener mixture): 86 ± 1%
CC(C)[C@H](NC(=O)[C@H](CCCCN)NC(=O)[C@H](CCCNC(=N)N)NC(=O)[C@@H](NC(=O)[C@H](C)NC(=O)[C@H](CC(N)=O)NC(=O)[C@H](CCCNC(=N)N)NC(=O)[C@@H](NC(=O)[C@H](CCCCN)NC(=O)[C@H](CCCCN)NC(=O)[C@@H](NC(=O)[C@@H](NC(=O)[C@H](CCCNC(=N)N)NC(=O)[C@H](CCCNC(=N)N)NC(=O)[C@H](Cc1c[nH]c2ccccc12)NC(=O)[C@H](Cc1c[nH]c2ccccc12)NC(=O)CN)[C@@H](C)O)C(C)C)C(C)C)C(C)C)C(=O)O  haemolysis (sheep red blood cells; 512 µg/mL, 1 h, 37 °C; reference: Triton X-100): < 2%
CCCCn1cc(C(=O)O)c(=O)c2cc(F)c(Nc3cccc(Cl)c3)c([N+](=O)[O-])c21  IC50 (SW480; cell growth, SRB; 72 h): 261 ± 19.1 µg/mL
CC(C)C[C@H](NC(=O)[C@H](CCCNC(=N)N)NC(=O)[C@H](Cc1ccccc1)NC(=O)[C@H](Cc1ccccc1)NC(=O)[C@@H](NC(=O)[C@H](COP(=O)(O)O)NC(=O)[C@@H](N)COP(=O)(O)O)[C@@H](C)O)C(=O)N[C@@H](Cc1ccccc1)C(=O)N[C@@H](CC(N)=O)C(=O)N[C@@H](CCCNC(=N)N)C(=O)N[C@@H](C)C(=O)N[C@@H](CCCCN)C(=O)N[C@@H](CCCNC(=N)N)C(=O)N[C@@H](Cc1c[nH]cn1)C(=O)N[C@@H](Cc1c[nH]cn1)C(=O)NCC(=O)N[C@@H](Cc1ccc(O)cc1)C(=O)N[C@@H](CCCCN)C(=O)N[C@@H](CCCNC(=N)N)C(=O)N[C@@H](CCCCN)C(=O)N[C@@H](Cc1ccccc1)C(=O)N[C@@H](Cc1c[nH]cn1)C(=O)O  viability (MC3T3-E1; CCK-8; up to MBC, 24 h; reference: control): no effect
O=C1Nc2ccccc2C1=NN=Cc1ccc(F)cc1  cytotoxic concentration (HUVEC; MTT; 24 and 48 h, 50% cell death): 50 to 500 µg/mL
C#CC[C@H](NC(=O)CNC(=O)[C@H](CO)NC(=O)[C@H](CCCCN)NC(=O)[C@H](C)N(C)C(=O)[C@H](C)NC(=O)[C@@H](NC(=O)[C@@H](NC(=O)[C@H](CCCNC(=N)N)NC(=O)[C@H](Cc1c[nH]cn1)NC(=O)[C@@H]1CCCN1C(=O)[C@H](Cc1c[nH]c2ccccc12)NC(=O)[C@@H](N)CCSC)C(C)C)[C@@H](C)O)C(=O)O  CP50 (HeLa HaloTag-GFP-Mito; cell penetration, chloroalkane penetration; 24 h): 1.19 ± 0.16 µM
[2H]c1c(NS(C)(=O)=O)c([2H])c2c(C(=O)c3ccc(OCCCN(CCCC)CCCC)cc3)c(CCCC)oc2c1[2H]  EC50 (H9c2 differentiated; cytotoxicity, refers to: dead-cell protease; 6 h): 27.6 ± 2.34 µM
CC[C@H](C)[C@H](N)C1=N[C@H](C(=O)N[C@@H](CC(C)C)C(=O)N[C@H](CCC(=O)O)C(=O)N[C@H](C(=O)N[C@H]2CCCCNC(=O)[C@H](CC(N)=O)NC(=O)[C@@H](CC(=O)O)NC(=O)[C@H](Cc3c[nH]cn3)NC(=O)[C@@H](Cc3ccccc3)NC(=O)[C@H](Cc3ccccc3)NC(=O)[C@@H](CCCN)NC2=O)[C@@H](C)CC)CS1  hemolysis (sheep red blood cells; 128 µg/mL, 20 h, 37 °C; reference: Triton X-100 0.1%): 0%
CCCCn1cc(C(=O)O)c(=O)c2cc(F)c3c(nnn3-c3cccc(Cl)c3)c21  IC50 (HT-29; cell growth or viability, SRB): 144 µM
Cc1cc(O)cc(C)c1C[C@H](N)C(=O)N[C@H](CCCNC(=N)N)C(=O)N[C@H]1Cc2ccccc2CN(CCC(N)=O)C1=O  Papp (apical to basolateral) (brain-like endothelial cells with pericytes; human in vitro BBB model; 200 µM, 2 h, 37 °C): 13.7 ×10⁻⁶ cm/s
O=C(CCc1ccccc1)NOC(=O)OCc1ccccc1  viability (MCF7; 100 µM): > 85%
CC(C)C(N)C(=O)NC(C(=O)OCC(=O)C1(O)CCC2C3CCC4=CC(=O)C=CC4(C)C3C(O)CC21C)C(C)C (stereo not drawn)  LDH release (MDCK wild type; absorbance; 250 µM, 4 h; reference: negative control): ~2 fold
CC(C)[C@@H]1NC(=O)CNC(=O)[C@H](CC(N)=O)NC(=O)[C@H](CCCNC(=N)N)NC(=O)[C@H](Cc2ccc(O)cc2)NC(=O)[C@H](C(C)C)NC(=O)[C@@H](NC(=O)[C@@H](NC(=O)[C@H](CC(N)=O)NC(=O)[C@H](Cc2c[nH]c3ccccc23)NC(=O)[C@H](C)NC(=O)[C@H](Cc2ccccc2)NC(=O)CNC(=O)[C@H](CCCCN)NC(=O)[C@H](Cc2ccccc2)NC(=O)[C@H](Cc2ccccc2)NC(=O)[C@H](CCCCN)NC(=O)OCC2c3ccccc3-c3ccccc32)C(C)C)CSSC[C@@H](C(=O)N[C@@H](Cc2c[nH]cn2)C(=O)N[C@@H](CCCNC(=N)N)C(=O)N[C@@H](CCCNC(=N)N)C(=O)N[C@@H](C)C(=O)N[C@@H](CC(N)=O)C(N)=O)NC(=O)[C@H](C(C)C)NC(=O)[C@H](CCCNC(=N)N)NC1=O  viability (HaCaT; CCK-8; up to 128 µM, 12 h): > 90%
CC[C@H](C)[C@H](N)C1=N[C@H](C(=O)N[C@@H](CC(C)C)C(=O)N[C@H](CCC(=O)O)C(=O)N[C@H](C(=O)N[C@H]2CCCCNC(=O)[C@H](CC(N)=O)NC(=O)[C@@H](CC(=O)O)NC(=O)[C@H](Cc3c[nH]cn3)NC(=O)[C@@H](Cc3ccc4ccccc4c3)NC(=O)[C@H]([C@@H](C)CC)NC(=O)[C@@H](CCCN)NC2=O)[C@@H](C)CC)CS1  hemolysis (sheep red blood cells; 128 µg/mL, 20 h, 37 °C; reference: Triton X-100 0.1%): 0%
Clc1c(Cl)c(Cl)c2c(c1Cl)Oc1c(Cl)c(Cl)c(Cl)c(Cl)c1O2  mass balance (Caco-2 monolayer; GC-HRMS; static Transwell; 0.2 ng/mL, 24 h, 1% DMSO, congener mixture): 82 ± 2%
O=C(Cc1csc2nc(-c3ccc(Br)cc3)cn12)NN=C1CCCC1  minimum cytotoxic concentration (HEL human embryonic lung fibroblast; microscopy of cell morphology): > 100 µg/mL
CCCCCCCCCCCCCC(=O)N[C@@H](CCCCN)C(=O)N[C@@H](CCCCN)C(N)=O  cell death (HeLa CCL-2; MTS; 50 µM): 50%
CCCCn1cc(C(=O)O)c(=O)c2cc(F)c3c(nnn3-c3ccccc3Cl)c21  IC50 (MCF7; cell growth or viability, SRB): 74.3 µM
C#CC[C@H](NC(=O)CNC(=O)[C@H](CO)NC(=O)[C@@H]1CCCCNC(=O)CCCC(=O)N[C@@H](CCSC)C(=O)N[C@@H](Cc2c[nH]c3ccccc23)C(=O)N2CCC[C@H]2C(=O)N[C@@H](Cc2c[nH]cn2)C(=O)N[C@@H](CCCNC(=N)N)C(=O)N[C@@H](C(C)C)C(=O)N[C@@H]([C@@H](C)O)C(=O)N[C@@H](C)C(=O)N(C)[C@@H](C)C(=O)N1)C(=O)O  cytosolic access ratio (HeLa HaloTag-GFP-Mito; chloroalkane penetration; 4 h; reference: compound over non-N-methylated variant): ~3 fold
Clc1cc2oc3cc(Cl)c(Cl)cc3c2cc1Cl  mass balance (Caco-2 monolayer; GC-HRMS; static Transwell; 0.2 ng/mL, 24 h, 1% DMSO, congener mixture): 75 ± 1%
CCCCn1cc(C(=O)O)c(=O)c2cc(F)c(Nc3ccccc3Cl)c([N+](=O)[O-])c21  IC50 (MCF7; cell growth, SRB; 72 h): 27.6 ± 2.48 µg/mL
COc1ccc2[nH]cc(CCNS(=O)(=O)CCc3cn(-c4cnc5ccccc5c4)nn3)c2c1  viability (L02; MTT; 50 µM): 80.1%
CCCCn1cc(C(=O)O)c(=O)c2cc(F)c(Nc3ccccc3Cl)c(N)c21  IC50 (SW480; cell growth or viability, SRB): 77.4 µM
Clc1cc2c(cc1Cl)Oc1c(cc(Cl)c(Cl)c1Cl)O2  mass balance (Caco-2 monolayer; GC-HRMS; static Transwell; 0.2 ng/mL, 24 h, 1% DMSO, congener mixture): 85 ± 2%
CCCCn1cc(C(=O)O)c(=O)c2cc(F)c(Nc3cccc(Cl)c3)c(N)c21  IC50 (SW480; cell growth, SRB; 72 h): 28.4 ± 1.98 µg/mL
CC1N=C(CCCCCCCCCCC2=CC(CCCCCCCCCCC3=NC(C)C(O)CC3)C3CCCN3C2)CCC1O (stereo not drawn)  IC90 (PMA-differentiated THP-1; cytotoxicity, Neutral Red): > 20 µg/mL
